Measured values gathered from unrelated publications.
Compare with care: the assays were run in different laboratories. Numbers after ± are the reported error.

With `COc1cc2c(c(OC)c1)C(C)=[N+](c1ccc(OC)c3c(OC)cc(C)cc13)[C@@H](C)C2` the IC50 was 493 nM (Plasmodium falciparum; parasite growth, SYBR Green; NF54; blood stage).
`CN(C)c1nc(-c2ccccc2)nc2[nH]nc(Nc3ccc(F)cc3)c12` has an IC50 of 8120 nM (rhinovirus B42; viral cytopathic effect; HeLa).
`COc1cccc2c(-c3ccc(O)c4c3CCN=C4)ccc(OC(C)C)c12` has an IC50 of 163 ± 33 nM (Plasmodium falciparum; asexual parasite proliferation, SYBR Green I fluorescence; K1).
The IC50 of `Nc1nc(-c2ccccc2)nc2[nH]nc(Nc3ccc(F)cc3)c12` is reported as 30 nM (rhinovirus B42; viral cytopathic effect; HeLa).
The IC50 of `COc1cccc2c(-c3ccc(O)c4c3C[C@@H](C)N[C@@H]4C)c(C)cc(O)c12` is reported as 41.5 nM (Plasmodium falciparum; parasite growth, SYBR Green; NF54; blood stage).
For `COc1cncc(-c2cc(F)cc(CNC(=O)c3cc(N4CC[C@@](C#N)(C5CC5)C4=O)cc(C)n3)c2)c1`, the IC50 was 274 nM (Plasmodium falciparum; parasite growth; conditional knockdown control line; 120 h, with: 3 nM anhydrotetracycline).
With `CC1=N[C@H](C)Cc2c(-c3ccc(C)cc3)ccc(O)c21` the IC50 was 446 ± 83 nM (Plasmodium falciparum; asexual parasite proliferation, SYBR Green I fluorescence; K1).
`COCCN(C)CC(=O)NC(Cc1ccc(-c2ccccc2)cc1)B(O)O` (stereo not shown) gave an IC50 of 260 nM (Plasmodium berghei; liver schizont biomass; HepG2, liver stage; 48 h).
With `COc1cccc2c(-c3ccc(O)c4c3CCNC4)ccc(O)c12` the IC50 was 463.9 ± 0.85 nM (Plasmodium falciparum; asexual parasite growth, SYBR Green I; clinical isolate SB_04, Malawi).
`Nc1nc(-c2ccc(Cl)cc2)nc2[nH]nc(Nc3cccc(F)c3)c12` gave an IC50 of 7750 nM (coxsackievirus B3; viral cytopathic effect; HeLa).
`CCOC(=O)/C=C/[C@H](C[C@@H]1CCNC1=O)NC(=O)[C@@H](CC(=O)[C@@H](NC(=O)c1cc(C)on1)C(C)C)Cc1ccc(F)cc1` has an IC50 of 13 nM (rhinovirus C11a-mGL; viral replication, high-content imaging).
With `Cc1ccc(Nc2n[nH]c3nc(-c4ccccc4)nc(N)c23)cc1` the IC50 was 300 nM (coxsackievirus B3; viral cytopathic effect; HeLa).
The IC50 of `CSCC[C@H](NC(=O)[C@H](CCCCN)NC(=O)[C@H](CCCNC(=N)N)NC(=O)[C@H](CO)NC(=O)[C@H](Cc1c[nH]c2ccccc12)NC(=O)[C@H](CCCNC(=N)N)NC(=O)[C@H](CC(C)C)NC(=O)CN)C(=O)N1CCC[C@H]1C(=O)N[C@@H](CS)C(=O)N[C@H](C(=O)N[C@@H](CO)C(=O)O)C(C)C` is reported as greater than 10000 nM (Human immunodeficiency virus 1; viral replication, inhibitor; TZM-bl).
`Nc1nc(-c2ccccc2)nc2[nH]nc(Nc3ccc(Cl)cc3)c12` gave an IC50 of 10 nM (rhinovirus B42; viral cytopathic effect; HeLa).
`CNCc1ccc2c(c1)C[C@H](CNC(=N)N)[C@H]2NC(=O)C(=O)Nc1ccc(Cl)c(F)c1` has an IC50 of 3780 nM (HIV-1; pseudovirus infection, Env pseudovirus neutralisation; TZM-bl, clade B T/F isolate d15_410_787).
With `Cc1cc(N2CC[C@@](C#N)(C3CC3)C2=O)cc(NC(=O)Cc2ccccc2)n1` the IC50 was 48 nM (Plasmodium falciparum; parasite growth; conditional knockdown control line; 72 h, with: 12.5 nM anhydrotetracycline).
With `CCc1ccc(-c2nc(N)c3c(Nc4ccc(F)cc4)n[nH]c3n2)cc1` the IC50 was 7180 nM (coxsackievirus B3; viral cytopathic effect; HeLa).
`COC1C=COC2(C)Oc3c(C)c(O)c4c(c3C2=O)C2=NC3(CCN(CC(C)C)CC3)NC2=C(NC(=O)C(C)=CC=CC(C)C(O)C(C)C(O)C(C)C(OC(=O)Nc2cnccn2)C1C)C4=O` (stereo not shown) gave an IC50 of 39 nM (Mycobacteroides abscessus; intracellular growth, visual read; THP-1 derived macrophages, ATCC 19977).
For `CCCOC(=O)N1c2cc(CNC)ccc2[C@H](NC(=O)C(=O)Nc2ccc(Cl)c(F)c2)[C@H]1CNC(=N)N`, the IC50 was greater than 100000 nM (Human immunodeficiency virus 1; viral infection, Env pseudovirus; TZM-bl, 620345.c01 CRF01_AE).
With `Cc1cc(N2CCC(CO)(C3CC3)C2=O)cc(C(=O)NCc2cc(F)cc(-c3cnn(C)c3)c2)n1` (stereo not shown) the IC50 was 245 nM (Plasmodium falciparum; parasite growth; conditional knockdown control line; 72 h, with: 12.5 nM anhydrotetracycline).
With `Nc1nc(-c2ccccc2)nc2[nH]nc(Nc3cccc(C(F)(F)F)c3)c12` the IC50 was 1430 nM (rhinovirus B42; viral cytopathic effect; HeLa).
`COc1cccc2c(-c3ccc4c(c3O)[C@@H](C)N[C@H](C)C4)c(CO)cc(OC)c12` gave an IC50 of 3.6 ± 0.7 nM (Plasmodium falciparum; asexual parasite growth, SYBR Green I; clinical isolate SB_04, Malawi).

For quick reference, copied from above:
With `COc1cccc2c(-c3ccc(O)c4c3CCNC4)ccc(O)c12` the IC50 was 463.9 ± 0.85 nM (Plasmodium falciparum; asexual parasite growth, SYBR Green I; clinical isolate SB_04, Malawi).
`Nc1nc(-c2ccccc2)nc2[nH]nc(Nc3ccc(Cl)cc3)c12` gave an IC50 of 10 nM (rhinovirus B42; viral cytopathic effect; HeLa).
`Nc1nc(-c2ccc(Cl)cc2)nc2[nH]nc(Nc3cccc(F)c3)c12` gave an IC50 of 7750 nM (coxsackievirus B3; viral cytopathic effect; HeLa).
The IC50 of `CSCC[C@H](NC(=O)[C@H](CCCCN)NC(=O)[C@H](CCCNC(=N)N)NC(=O)[C@H](CO)NC(=O)[C@H](Cc1c[nH]c2ccccc12)NC(=O)[C@H](CCCNC(=N)N)NC(=O)[C@H](CC(C)C)NC(=O)CN)C(=O)N1CCC[C@H]1C(=O)N[C@@H](CS)C(=O)N[C@H](C(=O)N[C@@H](CO)C(=O)O)C(C)C` is reported as greater than 10000 nM (Human immunodeficiency virus 1; viral replication, inhibitor; TZM-bl).
